Measured values from different studies.
Numbered parts are unrelated; each lists some results of a single study. Positions count from the first letter of the parent shown.

Study 1
Target: ATF5, bZIP domain (human)
Technique: DHFR protein complementation
Matrix: yeast
Setting: single substitutions, most at no-binding floor
Relative to: wild-type JUN-FOS pair
Direction: higher = stronger binding
Measurement: binding fitness
Starting sequence: JUN, bZIP domain (human); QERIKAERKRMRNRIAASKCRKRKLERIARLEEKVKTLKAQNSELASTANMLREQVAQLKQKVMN; partner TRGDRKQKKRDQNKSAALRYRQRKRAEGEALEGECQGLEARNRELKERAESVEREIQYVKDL
Variant = S43E; value = -1.51 natural log
Variant = Q41N; value = -1.52 natural log
Variant = A29T; value = -1.4 natural log
Variant = L38P; value = -1.52 natural log
Variant = S47W; value = -1.44 natural log
Variant = Q55V; value = -1.52 natural log
Variant = L59P; value = -1.47 natural log
Variant = S43Q; value = -1.33 natural log

Study 2
Target: CCNB3, cyclin fold, Cln2 fusion (human)
Technique: yeast growth competition, sequencing
Matrix: yeast
Setting: strong parent motif
Relative to: not given
Direction: higher = stronger binding
Measurement: normalised enrichment score
Starting sequence: viral docking peptide; YKVKRRLVFGADD; partner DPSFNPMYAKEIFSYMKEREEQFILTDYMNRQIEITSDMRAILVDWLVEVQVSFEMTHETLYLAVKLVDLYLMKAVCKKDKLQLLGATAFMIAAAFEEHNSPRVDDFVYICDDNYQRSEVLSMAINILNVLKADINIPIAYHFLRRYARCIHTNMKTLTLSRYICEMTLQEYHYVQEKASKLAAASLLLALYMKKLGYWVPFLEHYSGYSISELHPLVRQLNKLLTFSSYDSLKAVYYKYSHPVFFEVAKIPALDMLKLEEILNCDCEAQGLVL
Variant = V8D; value = 3.14
Variant = V8I; value = 1.85
Variant = L7S; value = 0.399
Variant = R5A; value = 0.319
Variant = A11P; value = 2.64
Variant = A11Q; value = 1.76
Variant = K2V; value = 1.5
Variant = D12C; value = 1.6
Variant = K2H; value = 2.69
Variant = V8M; value = 1.29
Variant = K2D; value = 2.43
Variant = G10I; value = 1.25
Variant = K2G; value = 2.68
Variant = K2P; value = 2.68

Study 3
Target: UBE2A UBC core domain (UniProt P49459)
Chain of UniProt P49459 (whole entry, looked up): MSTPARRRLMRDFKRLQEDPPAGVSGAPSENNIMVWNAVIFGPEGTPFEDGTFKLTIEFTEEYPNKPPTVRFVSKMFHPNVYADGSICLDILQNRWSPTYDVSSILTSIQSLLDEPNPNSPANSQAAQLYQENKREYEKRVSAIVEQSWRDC
Technique: yeast two-hybrid
Matrix: yeast
Setting: mostly zero background
Relative to: not given
Direction: higher = stronger interaction
Measurement: lacZ reporter activity
B1: ARK2C RING domain (UniProt Q6ZSG1); chain EGEESDTDEKCTICLSMLEDGEDVRRLPCMHLFHQLCVDQWLAMSKKCPICRVDIETQLGAD
B2: TRIM63 RING domain (UniProt Q969Q1); chain PMENLEKQLICPICLEMFTKPVVILPCQHNLCRKCANDIFQAANPYWTSRGSSVSMSGGRFRCPTCRHEVIMDRHGV
Molecule = DDENSDNSNECVVCLSDLRDTLILPCRHLCLCTSCADTLRYQANNCPICRLPFRALLQIR (MGRN1 RING domain (UniProt O60291)); value = 0
Molecule = YWAMDSTFELCKICAESNKDVKIEPCGHLLCSCCLAAWQHSDSQTCPFCRCEIKGWEAVS (CBLC RING domain (UniProt Q9ULV8)); value = 0
Molecule = B1 (ARK2C RING domain); value = 0
Molecule = B2 (TRIM63 RING domain); value = 0

Study 4
Target: HLA class I histocompatibility antigen, A alpha chain, allele A*80:01 (Homo sapiens, UniProt P04439)
Read-out: peptide-MHC binding
Form: peptide
Concentration: concentration not given
Measurement: binding
Molecule = MSADNAGAL; value = inactive
Molecule = WFQRIPLQW; value = inactive
Molecule = GLIQYPTAW; value = inactive
Molecule = DEEAINLFH; value = inactive
Molecule = LVGNTLTTC; value = inactive
Molecule = SVFELSNFA; value = inactive
Molecule = EILWDVIPF; value = inactive

Repeated from above (study 3):
Molecule = B1 (ARK2C RING domain); value = 0
Molecule = B2 (TRIM63 RING domain); value = 0
Molecule = DDENSDNSNECVVCLSDLRDTLILPCRHLCLCTSCADTLRYQANNCPICRLPFRALLQIR (MGRN1 RING domain (UniProt O60291)); value = 0
Molecule = YWAMDSTFELCKICAESNKDVKIEPCGHLLCSCCLAAWQHSDSQTCPFCRCEIKGWEAVS (CBLC RING domain (UniProt Q9ULV8)); value = 0
